# Earlier results as cited in several papers.
# Each numbered part shows a few of the values that one paper quotes.

# Block 1 — target: dopamine transporter
Structure (SMILES),IC50 [µM]
C[C@H]1C[C@@H]2[C@H]([C@@H](O)C[C@@]3(C)[C@H]2CC[C@]3(O)C(=O)CO)[C@@]2(C)C=CC(=O)C=C12,> 10
Cc1ccnc2c1NC(=O)c1cccnc1N2C1CC1,> 10
CN(C)C(=N)N=C(N)N,> 10

# Block 2 — organism: Cryptosporidium parvum; technique: high-throughput screen; tested at: concentration not given
SMILES,activity
O=C(O)c1cc(-c2ccc(F)cc2F)ccc1O,inactive
Cc1cccc(CN2CCN(C(c3ccccc3)c3ccc(Cl)cc3)CC2)c1.Cl.Cl (stereo not drawn),inactive
CCc1c(C)[nH]c2c1C(=O)C(CN1CCOCC1)CC2 (stereo not drawn),inactive
CC12CC3CC(C)(C1)CC(N)(C3)C2,inactive
COC(=O)C1=C(C)NC(C)=C(C(=O)OC(C)C)C1c1cccc2nonc12 (stereo not drawn),inactive
Cc1ncc([N+](=O)[O-])n1CCO,inactive
CC1(C)S[C@@H]2[C@H](NC(=O)[C@H](N)c3ccc(O)cc3)C(=O)N2[C@H]1C(=O)O,inactive
CN(C)[C@@H]1C(O)=C(C(N)=O)C(=O)[C@@]2(O)C(O)=C3C(=O)c4c(O)ccc(Cl)c4[C@@H](O)[C@H]3C[C@@H]12,inactive
Oc1ccc(C2CNCCc3c2cc(O)c(O)c3Cl)cc1 (stereo not drawn),inactive
COc1ccc2cc(CCC(C)=O)ccc2c1,inactive
CN(Cc1cnc2nc(N)nc(N)c2n1)c1ccc(C(=O)N[C@@H](CCC(=O)O)C(=O)O)cc1.O,inactive
NS(=O)(=O)c1cc(C2(O)NC(=O)c3ccccc32)ccc1Cl (stereo not drawn),inactive
C[C@]12C=CC(=O)C=C1CC[C@@H]1[C@@H]2C(=O)C[C@@]2(C)[C@H]1CC[C@]2(O)C(=O)CO,inactive

# Mixed results
SMILES,tested on,test,test system,setting,how to read,quantity,result
CC(=O)Nc1ncc(CN2CCC[C@H](Cc3cc(C)nc(C)c3)C2)s1,OGA (human),cellular activity,,,,IC50,0.0039 µM
CCO,Escherichia coli AdhE,substrate,,,,Km,10.6 mM
CCC(F)(F)c1cc(N2CCC(S(C)(=O)=O)CC2)nc2sc(C(N)=O)c(N)c12,IKBKB,biochemical activity,,,,IC50,0.049 µM
Cc1nc2ccc3ccc(CNc4ccc5c(c4)CN([C@@H](CCC(=O)O)C(=O)O)C5=O)cc3c2c(=O)[nH]1,KB,cell growth,,together with: folic acid 200 nM,,IC50,0.032 µM
CCc1c(Cl)c(O)c(Cl)c(O)c1C(=O)O[C@H]1[C@H](O)[C@H](OC)[C@H](OC/C2=C\C=C\C[C@H](O)/C(C)=C/[C@H](CC)[C@@H](O[C@@H]3OC(C)(C)[C@@H](OC(=O)C(C)C)[C@H](O)[C@@H]3O)/C(C)=C/C(C)=C/C[C@@H]([C@@H](C)O)OC2=O)O[C@@H]1C,Fusobacterium nucleatum,,HM-992,,,MIC,< 0.06 µg/mL
CCN(CC)c1ccc2c(-c3ccccc3C(=O)O)c3ccc(=[N+](CC)CC)cc-3oc2c1,,,,cation to zwitterion,,pKa,3.7
O=C(N[C@H]1CCCCC/C=C\C2C[C@@]2(C(=O)O)NC(=O)[C@@H]2C[C@@H](Oc3ccncc3)CN2C1=O)OC1CCCC1 (stereo partly drawn),HCV NS3,biochemical,,,,IC50,4.87 µM
c1cn[nH]c1,Cryptosporidium parvum,,,,,EC50,15800 µM
CN(C)CC/C=C1/c2ccccc2Sc2ccc(Cl)cc21,MCF7,"microarray, item: BHLHE40",,concentration not given,reference: DMSO,mRNA fold change,4.22
FC(F)(F)c1ccc(Oc2ccc(-c3noc(-c4ccc5[nH]ccc5c4)n3)cc2)cc1,Pseudomonas aeruginosa,,ATCC 27853,,,MIC,> 128 µg/mL
Cc1cc(C)c(C)c(S(=O)(=O)Nc2ccc(N3CC[C@H](C(=O)O)C3)c3ccccc23)c1C,ARE,"luciferase reporter gene, activator",,,,EC50,~40 µM

# Excerpt of the above (block 1):
Structure (SMILES),IC50 [µM]
C[C@H]1C[C@@H]2[C@H]([C@@H](O)C[C@@]3(C)[C@H]2CC[C@]3(O)C(=O)CO)[C@@]2(C)C=CC(=O)C=C12,> 10
Cc1ccnc2c1NC(=O)c1cccnc1N2C1CC1,> 10
CN(C)C(=N)N=C(N)N,> 10
